# Measurements of several laboratories.
# Each line is one published result; not all experiments were run side by side. ± gives the spread as reported.
SMILES,test,test system,conditions,scale,remaining compound [%]
CNC(=O)c1ncn2c(=O)n(C)nnc12,,PBS,"50 µM, 2 h, pH 7.4, no microsomes",reference: time zero,93 ± 1
CC[C@H](C)[C@@H]1NC(=O)[C@H](CC(N)=O)NC(=O)[C@@H]2CCCN2C(=O)[C@@H](NC(=O)[C@H](CC(N)=O)NC(=O)[C@@H](N)CCC(N)=O)COC(=O)[C@H](CCSC)NC(=O)[C@H](Cc2c[nH]c3ccccc23)NC(=O)[C@H](CCC(N)=O)NC(=O)CNC(=O)[C@H](Cc2ccccc2)NC1=O,,human plasma diluted with PBS,"0.28 mM, 30 min, pH 7.2, 37 °C",,< 4
Cc1cc(O)cc(C)c1C[C@H](NC(=O)[C@H](N)CCCNC(=N)N)C(=O)N[C@@H](CCCCN)C(=O)N[C@@H](Cc1ccccc1)C(N)=O,,mouse plasma,"10 µg/mL, 24 h, 37 °C, with: H2O2 100 mM",,81.1 ± 3.6
C[C@@H]1NC(=O)[C@H](CC(N)=O)N2C[C@H](Cc3c[nH]c4ccccc34)NC(=O)[C@H](CSCC2=O)NC(=O)[C@H](CCCNC(=N)N)NC(=O)[C@@H](Cc2ccccc2)NC(=O)[C@H](Cc2c[nH]cn2)NC(=O)[C@@H](NC(=O)[C@@H](N)Cc2ccc(O)cc2)CSSC[C@@H](C(=O)N[C@@H](Cc2ccc(O)cc2)C(N)=O)NC(=O)[C@H](Cc2ccccc2)NC1=O,LC-MS,rat serum,"10 µM, 24 h, 37 °C",,12
CCc1noc(CC)c1C(=O)O[C@H]1C(C)=C[C@]23C(=O)[C@@H](C=C(CO)[C@@H](O)[C@]12O)[C@H]1[C@@H](C[C@H]3C)C1(C)C,,phosphate buffer 30% acetonitrile,"100 µM, 2 h, pH 7.4, 37 °C",,~98
C[C@H](CCC(=O)N[C@@H](CCCCNC(=O)C(F)(F)F)C(=O)O)[C@H]1CC[C@H]2[C@@H]3[C@H](O)C[C@@H]4C[C@H](O)CC[C@]4(C)[C@H]3C[C@H](O)[C@]12C,,hNTCP-HEK cell homogenate,"5 µM, 5 min",,97.2
CN(C)C(=O)c1ncn2c(=O)n(C)nnc12,,PBS,"50 µM, 2 h, pH 7.4, no microsomes",reference: time zero,92 ± 3
CC[C@@H](C)[C@@H]1NC(=O)[C@@H](Cc2ccccc2)NC(=O)[C@@H]2CCCN2C(=O)[C@H]([C@H](C)CC)NC(=O)[C@@H](Cc2ccccc2)NC(=O)[C@@H]2CCCN2C1=O,,mouse plasma,"2 h, 37 °C",,100
NC(=O)c1c(F)ccc(OCc2nc3cc(Cl)cnc3s2)c1F,,human plasma,"10 µM, 24 h, 37 °C",,100 ± 5.2
N.N.O=C([O][Pt]([OH])([Cl])[Cl])c1ccc(P(c2ccccc2)c2ccccc2)cc1.[Cl][Au],NMR,DMSO-d6,28 days,,> 98
Cc1cc(O)cc(C)c1C[C@H](N)C(=O)N[C@H](C)C(=O)NCC(=O)N[C@@H](Cc1ccc(F)cc1)C(=O)N1CCC[C@H]1C(=O)N[C@@H](CC(C)C)C(=O)N[C@@H](Cc1c[nH]c2ccccc12)C(=O)NCc1cc(C(F)(F)F)cc(C(F)(F)F)c1,,rat plasma,"0 h, 37 °C",,100
CSCC[C@H](NC(=O)CNC(=O)[C@H](CC(=O)O)NC(=O)[C@@H](NC(=O)[C@@H](NC(=O)[C@@H](NC(=O)CNC(=O)[C@H](CCC(=O)O)NC(=O)[C@H](CCSC)NC(=O)[C@H](CC(=O)O)NC(=O)[C@H](C)NC(=O)[C@H](C)NC(=O)[C@@H](NC(=O)[C@H](CO)NC(=O)[C@@H](N)CC(C)C)[C@@H](C)O)C(C)C)C(C)C)[C@@H](C)O)C(=O)N[C@@H](C)C(=O)N[C@@H](CO)C(=O)NCC(=O)N[C@@H](CC(C)C)C(=O)N[C@@H](CC(=O)O)C(=O)N[C@@H](CCCCN)C(=O)N[C@@H](CC(=O)O)C(=O)N[C@@H](Cc1ccc(O)cc1)C(=O)N[C@@H](CC(C)C)C(=O)N[C@@H](CCCCN)C(=O)N1CCC[C@H]1C(=O)N[C@@H](CC(=O)O)C(=O)N[C@@H](CC(=O)O)C(=O)O,LC-MS/MS,dog serum,"10 µg/mL, 24 h, 37 °C",,67
Cc1cc(O)cc(C)c1C[C@H](N)C(=O)N[C@H](C)C(=O)NCC(=O)N(C)[C@@H](Cc1ccccc1)C(=O)N1CCC[C@H]1C(=O)N[C@@H](CC(C)C)C(=O)N[C@@H](Cc1c[nH]c2ccccc12)C(=O)NCc1cc(C(F)(F)F)cc(C(F)(F)F)c1,,rat plasma,"0 h, 37 °C",,100
COc1cccc2c1C(=O)c1c(O)c3c(c(O)c1C2=O)CC(O)(C(=O)CO)CC3OC1CC(NC(=O)OC2C=CCCC(C)(C(=O)NCC(=O)O)CC2)C(O)C(C)O1 (centres unmarked),,mouse plasma,"1 µM, time not given, 37 °C",,> 99

# For quick reference, copied from above:
SMILES,test,test system,conditions,scale,remaining compound [%]
CSCC[C@H](NC(=O)CNC(=O)[C@H](CC(=O)O)NC(=O)[C@@H](NC(=O)[C@@H](NC(=O)[C@@H](NC(=O)CNC(=O)[C@H](CCC(=O)O)NC(=O)[C@H](CCSC)NC(=O)[C@H](CC(=O)O)NC(=O)[C@H](C)NC(=O)[C@H](C)NC(=O)[C@@H](NC(=O)[C@H](CO)NC(=O)[C@@H](N)CC(C)C)[C@@H](C)O)C(C)C)C(C)C)[C@@H](C)O)C(=O)N[C@@H](C)C(=O)N[C@@H](CO)C(=O)NCC(=O)N[C@@H](CC(C)C)C(=O)N[C@@H](CC(=O)O)C(=O)N[C@@H](CCCCN)C(=O)N[C@@H](CC(=O)O)C(=O)N[C@@H](Cc1ccc(O)cc1)C(=O)N[C@@H](CC(C)C)C(=O)N[C@@H](CCCCN)C(=O)N1CCC[C@H]1C(=O)N[C@@H](CC(=O)O)C(=O)N[C@@H](CC(=O)O)C(=O)O,LC-MS/MS,dog serum,"10 µg/mL, 24 h, 37 °C",,67
